Measured values collected from several papers.
A part holds a random share of what one study measured. Positions count from the first letter of the parent shown. ± marks the error that the study gave.
Chain of UniProt P48432 (whole entry, looked up): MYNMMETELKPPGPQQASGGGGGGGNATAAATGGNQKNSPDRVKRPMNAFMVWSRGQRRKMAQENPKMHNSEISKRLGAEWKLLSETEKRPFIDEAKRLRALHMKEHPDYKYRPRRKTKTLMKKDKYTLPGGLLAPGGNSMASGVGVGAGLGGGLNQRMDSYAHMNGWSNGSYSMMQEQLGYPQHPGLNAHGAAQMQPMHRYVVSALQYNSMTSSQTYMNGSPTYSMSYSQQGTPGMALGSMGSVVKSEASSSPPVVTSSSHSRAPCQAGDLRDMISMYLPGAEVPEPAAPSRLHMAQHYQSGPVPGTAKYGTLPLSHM

Series 1
Target: PABPC1L2, full length, GST fusion (mouse, UniProt A0ABA7IW68)
Method: RNAcompete
Molecule type: RNA
Matrix: in vitro
Concentration: 20 nM
Setting: 7-mer, probes averaged, single round
Relative to: mean of 7-mers
Reading: higher = stronger binding
Construct (chain): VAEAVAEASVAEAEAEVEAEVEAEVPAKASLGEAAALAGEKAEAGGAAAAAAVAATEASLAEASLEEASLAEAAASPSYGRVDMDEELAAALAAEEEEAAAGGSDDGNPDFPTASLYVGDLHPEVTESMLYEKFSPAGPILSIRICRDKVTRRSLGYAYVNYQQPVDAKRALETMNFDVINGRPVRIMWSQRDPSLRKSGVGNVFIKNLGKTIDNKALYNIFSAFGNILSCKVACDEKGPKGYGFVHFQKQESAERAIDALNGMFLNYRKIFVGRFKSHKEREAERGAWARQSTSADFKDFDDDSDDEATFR
Oligonucleotide | 7-mer Z-score
CUUGGCC | -0.295
GAACGAU | -0.0736
UAUGUGG | 0.157
GUCUCGU | -0.344
ACCUUUC | -0.383
UGACGGA | -0.0409
UGACAGG | 0.115
AAUCUGG | 0.273

Series 2
Target: CRIPT, C-terminal peptide
Method: DHFR complementation, deep sequencing
Matrix: yeast
Setting: single substitutions, model-inferred values
Relative to: wild type
Reading: higher = weaker binding
Starting sequence: ERBIN, PDZ domain 1 (human); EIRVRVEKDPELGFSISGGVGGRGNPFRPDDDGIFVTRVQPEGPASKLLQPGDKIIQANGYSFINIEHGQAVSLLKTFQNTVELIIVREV; partner TKNYKQTSV
Change | binding free energy change
T81M | -0.0189 kcal/mol
L49N | 0.812 kcal/mol
K8Q | 1.04 kcal/mol
G18F | 1.36 kcal/mol
I2E | 0.25 kcal/mol
G18I | 1.34 kcal/mol
S62I | 0.144 kcal/mol
Q50I | 0.0317 kcal/mol

Other studies, line by line
P1: PafA, mature enzyme, eGFP fusion (Elizabethkingia meningoseptica, UniProt Q9KJX5); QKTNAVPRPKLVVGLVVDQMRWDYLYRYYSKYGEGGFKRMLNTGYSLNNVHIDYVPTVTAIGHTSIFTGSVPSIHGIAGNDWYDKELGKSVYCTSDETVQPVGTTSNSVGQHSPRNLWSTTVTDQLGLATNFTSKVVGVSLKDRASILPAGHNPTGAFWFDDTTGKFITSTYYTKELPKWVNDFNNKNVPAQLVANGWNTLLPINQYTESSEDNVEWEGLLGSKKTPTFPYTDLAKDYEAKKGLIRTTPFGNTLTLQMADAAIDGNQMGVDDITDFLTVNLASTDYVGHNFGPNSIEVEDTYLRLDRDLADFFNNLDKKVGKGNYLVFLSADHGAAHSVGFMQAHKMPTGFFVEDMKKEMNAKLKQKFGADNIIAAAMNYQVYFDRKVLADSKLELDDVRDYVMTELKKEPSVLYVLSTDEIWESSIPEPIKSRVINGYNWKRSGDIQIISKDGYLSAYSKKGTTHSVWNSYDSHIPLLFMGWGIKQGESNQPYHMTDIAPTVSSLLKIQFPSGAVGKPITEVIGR
Substance | target | test | system | setting | scale | quantity | result
GGCGGCGGCATTGTCCGGCGCGCGG (dsDNA) | Sox2 41-119 (Mus musculus, UniProt P48432) | EMSA | double-stranded DNA, one strand shown |  |  | Kd | 1.87 ± 0.659 nM
P1 R386G | inorganic phosphate, free oxyanion | microfluidic competitive inhibition | in vitro, cell-free expressed | not given, derived from inhibition constants, unchanged parent 615000 nM | lower = stronger binding | phosphate dissociation constant | 727 µM

Some of these lines once more (series 1):
Oligonucleotide | 7-mer Z-score
CUUGGCC | -0.295
